Results pooled from the literature.
A part holds a random share of what one study measured.
Chain of UniProt P22607 (whole entry, looked up): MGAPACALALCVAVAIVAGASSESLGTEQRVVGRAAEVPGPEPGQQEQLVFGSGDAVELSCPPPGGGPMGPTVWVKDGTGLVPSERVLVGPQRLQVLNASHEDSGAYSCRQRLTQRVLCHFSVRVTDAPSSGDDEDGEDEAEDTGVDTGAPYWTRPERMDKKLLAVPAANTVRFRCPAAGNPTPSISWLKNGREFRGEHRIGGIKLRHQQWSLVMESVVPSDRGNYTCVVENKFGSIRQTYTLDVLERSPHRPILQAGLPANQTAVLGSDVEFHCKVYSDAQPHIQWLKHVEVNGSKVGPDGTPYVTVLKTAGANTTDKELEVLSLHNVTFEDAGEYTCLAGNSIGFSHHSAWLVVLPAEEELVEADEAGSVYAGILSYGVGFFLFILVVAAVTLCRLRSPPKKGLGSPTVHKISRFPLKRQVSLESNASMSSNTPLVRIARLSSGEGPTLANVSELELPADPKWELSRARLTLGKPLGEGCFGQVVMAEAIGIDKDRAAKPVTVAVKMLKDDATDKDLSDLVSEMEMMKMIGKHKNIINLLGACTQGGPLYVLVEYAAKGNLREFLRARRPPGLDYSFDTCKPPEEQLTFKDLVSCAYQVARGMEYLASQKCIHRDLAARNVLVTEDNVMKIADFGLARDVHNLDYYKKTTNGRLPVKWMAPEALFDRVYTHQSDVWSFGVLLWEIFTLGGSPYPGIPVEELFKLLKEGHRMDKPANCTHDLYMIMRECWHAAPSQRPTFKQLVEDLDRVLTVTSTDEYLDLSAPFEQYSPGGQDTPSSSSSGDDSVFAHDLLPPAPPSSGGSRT
Chain of UniProt P10721 (whole entry, looked up): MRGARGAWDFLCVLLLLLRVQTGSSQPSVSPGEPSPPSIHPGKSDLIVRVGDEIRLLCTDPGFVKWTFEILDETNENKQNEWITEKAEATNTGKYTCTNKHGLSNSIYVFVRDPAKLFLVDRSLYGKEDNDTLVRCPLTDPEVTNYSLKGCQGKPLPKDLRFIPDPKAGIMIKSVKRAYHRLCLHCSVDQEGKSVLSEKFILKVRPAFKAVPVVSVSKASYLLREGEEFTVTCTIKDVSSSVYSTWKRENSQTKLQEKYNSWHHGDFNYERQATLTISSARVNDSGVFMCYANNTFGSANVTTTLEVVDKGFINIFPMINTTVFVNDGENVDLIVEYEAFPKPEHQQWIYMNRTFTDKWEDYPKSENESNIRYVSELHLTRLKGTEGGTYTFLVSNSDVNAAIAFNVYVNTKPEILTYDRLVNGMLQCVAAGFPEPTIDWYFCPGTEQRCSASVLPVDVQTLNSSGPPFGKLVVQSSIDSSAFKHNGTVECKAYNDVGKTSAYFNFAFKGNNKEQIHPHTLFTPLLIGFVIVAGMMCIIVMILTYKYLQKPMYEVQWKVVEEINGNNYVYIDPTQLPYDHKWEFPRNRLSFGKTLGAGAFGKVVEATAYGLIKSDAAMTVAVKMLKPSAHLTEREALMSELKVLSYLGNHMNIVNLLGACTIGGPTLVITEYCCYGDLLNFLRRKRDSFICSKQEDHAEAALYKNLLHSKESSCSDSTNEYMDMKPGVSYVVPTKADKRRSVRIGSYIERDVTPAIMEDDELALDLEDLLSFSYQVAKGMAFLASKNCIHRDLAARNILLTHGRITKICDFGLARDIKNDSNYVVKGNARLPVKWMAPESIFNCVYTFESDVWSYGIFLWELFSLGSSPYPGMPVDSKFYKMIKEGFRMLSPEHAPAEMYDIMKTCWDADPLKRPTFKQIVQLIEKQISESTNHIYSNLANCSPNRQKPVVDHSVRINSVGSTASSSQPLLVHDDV
Chain of UniProt Q8TBX8 (whole entry, looked up): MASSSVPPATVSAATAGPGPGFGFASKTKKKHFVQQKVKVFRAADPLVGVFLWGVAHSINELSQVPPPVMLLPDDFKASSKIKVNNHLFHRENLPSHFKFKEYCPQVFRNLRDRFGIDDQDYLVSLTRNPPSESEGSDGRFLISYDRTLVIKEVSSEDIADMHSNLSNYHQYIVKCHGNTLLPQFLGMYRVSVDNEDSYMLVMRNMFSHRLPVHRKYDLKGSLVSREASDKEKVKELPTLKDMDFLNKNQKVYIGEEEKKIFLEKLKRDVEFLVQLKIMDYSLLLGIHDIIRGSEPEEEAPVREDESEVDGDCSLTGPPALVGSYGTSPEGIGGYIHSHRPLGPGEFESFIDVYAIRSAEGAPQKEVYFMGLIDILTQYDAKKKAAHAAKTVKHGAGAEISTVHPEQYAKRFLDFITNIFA
Chain of UniProt O75716 (whole entry, looked up): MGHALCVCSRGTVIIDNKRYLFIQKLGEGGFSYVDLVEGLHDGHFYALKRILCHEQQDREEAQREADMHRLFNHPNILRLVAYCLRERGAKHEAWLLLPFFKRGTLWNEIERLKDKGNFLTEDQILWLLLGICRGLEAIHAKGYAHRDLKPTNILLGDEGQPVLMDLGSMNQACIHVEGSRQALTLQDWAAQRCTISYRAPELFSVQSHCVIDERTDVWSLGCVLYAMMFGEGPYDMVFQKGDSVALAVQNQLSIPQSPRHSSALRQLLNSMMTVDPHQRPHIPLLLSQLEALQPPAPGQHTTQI
Chain of UniProt P06213 (whole entry, looked up): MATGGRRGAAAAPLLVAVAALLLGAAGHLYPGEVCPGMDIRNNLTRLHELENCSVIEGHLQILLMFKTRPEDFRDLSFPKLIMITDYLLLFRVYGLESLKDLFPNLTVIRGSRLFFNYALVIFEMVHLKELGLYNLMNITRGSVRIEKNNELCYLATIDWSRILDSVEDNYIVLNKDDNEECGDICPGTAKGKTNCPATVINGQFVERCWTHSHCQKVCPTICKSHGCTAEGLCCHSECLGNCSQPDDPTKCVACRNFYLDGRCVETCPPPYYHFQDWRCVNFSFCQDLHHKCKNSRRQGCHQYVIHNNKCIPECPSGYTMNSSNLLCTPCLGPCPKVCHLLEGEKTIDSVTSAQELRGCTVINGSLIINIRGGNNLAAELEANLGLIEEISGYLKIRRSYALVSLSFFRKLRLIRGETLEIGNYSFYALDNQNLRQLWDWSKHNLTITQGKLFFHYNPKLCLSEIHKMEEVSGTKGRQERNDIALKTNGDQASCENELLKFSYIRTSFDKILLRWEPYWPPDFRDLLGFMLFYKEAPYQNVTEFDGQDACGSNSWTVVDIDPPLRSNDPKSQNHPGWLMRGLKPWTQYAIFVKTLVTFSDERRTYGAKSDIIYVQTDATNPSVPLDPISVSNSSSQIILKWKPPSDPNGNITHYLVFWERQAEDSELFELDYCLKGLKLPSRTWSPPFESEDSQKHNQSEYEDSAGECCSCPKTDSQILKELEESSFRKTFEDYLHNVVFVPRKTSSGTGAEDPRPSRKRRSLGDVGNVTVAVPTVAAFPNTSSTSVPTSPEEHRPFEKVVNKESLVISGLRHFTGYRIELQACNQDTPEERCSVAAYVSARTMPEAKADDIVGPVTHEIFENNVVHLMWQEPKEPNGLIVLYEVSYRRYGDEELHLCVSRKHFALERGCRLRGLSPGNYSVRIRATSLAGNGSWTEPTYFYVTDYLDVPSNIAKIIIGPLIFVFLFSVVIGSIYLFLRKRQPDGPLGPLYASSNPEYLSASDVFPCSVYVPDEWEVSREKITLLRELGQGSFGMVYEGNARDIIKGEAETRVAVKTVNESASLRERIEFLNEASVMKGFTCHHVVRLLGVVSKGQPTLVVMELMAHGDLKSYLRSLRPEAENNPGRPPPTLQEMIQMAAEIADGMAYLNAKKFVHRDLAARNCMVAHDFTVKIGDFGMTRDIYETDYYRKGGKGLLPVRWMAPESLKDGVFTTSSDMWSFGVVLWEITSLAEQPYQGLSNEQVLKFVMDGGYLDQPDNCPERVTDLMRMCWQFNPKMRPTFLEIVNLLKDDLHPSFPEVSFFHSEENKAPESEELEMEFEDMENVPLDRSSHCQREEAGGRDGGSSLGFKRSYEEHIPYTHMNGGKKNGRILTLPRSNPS
Chain of UniProt P42685 (whole entry, looked up): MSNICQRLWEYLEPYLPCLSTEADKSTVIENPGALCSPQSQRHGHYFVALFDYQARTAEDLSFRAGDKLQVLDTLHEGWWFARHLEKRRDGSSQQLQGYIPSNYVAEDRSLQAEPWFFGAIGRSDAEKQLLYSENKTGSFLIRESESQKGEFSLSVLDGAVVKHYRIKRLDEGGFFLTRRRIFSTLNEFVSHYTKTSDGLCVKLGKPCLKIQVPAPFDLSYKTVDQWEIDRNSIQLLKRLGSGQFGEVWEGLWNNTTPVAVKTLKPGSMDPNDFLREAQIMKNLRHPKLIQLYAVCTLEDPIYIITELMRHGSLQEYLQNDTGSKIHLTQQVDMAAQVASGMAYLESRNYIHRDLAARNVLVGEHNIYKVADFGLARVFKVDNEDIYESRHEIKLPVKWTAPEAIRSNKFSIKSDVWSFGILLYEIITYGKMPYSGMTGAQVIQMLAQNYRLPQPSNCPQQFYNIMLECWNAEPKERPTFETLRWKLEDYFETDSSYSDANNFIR

Series 1
Organism: Sarcocystis neurona
Effect on: parasite growth
Tested at: 10 µM
Time: 96 h
SMILES	inhibition [%]
C#C[C@]1(OC(C)=O)CC[C@H]2[C@@H]3CCC4=CC(=O)CC[C@@H]4[C@H]3CC[C@@]21C	-10.4
C=CC1=C(C(=O)O)N2C(=O)[C@@H](NC(=O)/C(=N\O)c3csc(N)n3)[C@H]2SC1	-16.2
CN(C)CCCC1(c2ccc(F)cc2)OCc2cc(C#N)ccc21 (stereo not shown)	-6
Cn1cc[nH]c1=S	-9

Series 2
Cell line: mouse MPNST tumor cells
Technique: high-content immunofluorescence imaging
Item: nuclear SOX9
Tested at: 10 µM
Time: 12 h
Setting: mean of 2 replicates
Baseline: DMSO control
Reading: higher = more nuclear SOX9
SMILES	nuclear SOX9 intensity
Cc1cc(Nc2nc(N[C@@H](C)c3ncc(F)cn3)ncc2Cl)[nH]n1	127 % of DMSO
O=C(Nc1ccc(F)cc1)N1CCc2ccccc2C1c1ccc(C(F)(F)F)cc1 (stereo not shown)	116 % of DMSO
COCC(=O)NCCc1c(C)[nH]c2ccc(O)cc12	99 % of DMSO
CC(=O)OCC(COC(C)=O)OC(C)=O	95 % of DMSO

Series 3
Target: Beta-1 adrenergic receptor (ADRB1, Homo sapiens, UniProt P08588)
Chain of UniProt P08588 (whole entry, looked up): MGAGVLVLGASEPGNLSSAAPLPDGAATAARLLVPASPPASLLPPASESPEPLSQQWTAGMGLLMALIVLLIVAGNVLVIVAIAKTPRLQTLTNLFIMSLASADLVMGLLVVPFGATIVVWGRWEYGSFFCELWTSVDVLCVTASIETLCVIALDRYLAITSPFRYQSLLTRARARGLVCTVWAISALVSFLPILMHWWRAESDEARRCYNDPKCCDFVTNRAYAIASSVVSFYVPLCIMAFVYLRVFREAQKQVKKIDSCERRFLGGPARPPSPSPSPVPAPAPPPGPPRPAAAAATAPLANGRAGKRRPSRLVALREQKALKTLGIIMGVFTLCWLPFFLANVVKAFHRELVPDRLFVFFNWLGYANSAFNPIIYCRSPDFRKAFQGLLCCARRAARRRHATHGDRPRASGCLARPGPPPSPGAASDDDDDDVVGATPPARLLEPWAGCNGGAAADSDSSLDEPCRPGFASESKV
Action: antagonist
Structure (SMILES)	IC50 [µM]
CC1(C)Cc2c(c(N3CCOCC3)nc3sc(C(=O)Nc4cccc(Cl)c4)c(N)c23)CO1	≥ 100
OCCc1ccc(O)cc1	≥ 100
COc1cc2oc(=O)ccc2c(OC)c1C[C@@H](O)C(C)(C)O	≥ 100
Fc1ccc(-c2nnc3ccc(N4CCc5ccccc5CC4)nn23)nc1	≥ 100
COc1cc(CN2CC=C(C)CC2)ccc1OCC(O)CN1CCSCC1 (stereo not shown)	≥ 100

Series 4
Compound: CN(c1ccnc(CNc2nc(Nc3ccc4c(c3)CC(=O)N4)ncc2C(F)(F)F)n1)S(C)(=O)=O
Technique: competition with immobilised ligand
Tested at: 1 µM
target	assay	remaining binding
Leucine-rich repeat serine/threonine-protein kinase 2 (LRRK2, Homo sapiens, UniProt Q5S007)	cell-free assay	15%
Serine/threonine-protein kinase 16 (STK16, Homo sapiens, UniProt O75716)	binding	1.5%
Serine/threonine-protein kinase PLK4 (PLK4, Homo sapiens, UniProt O00444)	cell-free assay	50%
Tyrosine-protein kinase FRK (FRK, Homo sapiens, UniProt P42685)	cell-free assay	93%
Mast/stem cell growth factor receptor Kit, autoinhibited (KIT, Homo sapiens, UniProt P10721)	cell-free assay	52%
Activin receptor type-1-like (ACVRL1, Homo sapiens, UniProt P37023)	cell-free assay	100%
Phosphatidylinositol 3-kinase C2 domain-containing subunit gamma (PIK3C2G, Homo sapiens, UniProt O75747)	cell-free assay	77%
Tyrosine-protein kinase ZAP-70 (ZAP70, Homo sapiens, UniProt P43403)	cell-free assay	61%
Phosphatidylinositol 5-phosphate 4-kinase type-2 gamma (PIP4K2C, Homo sapiens, UniProt Q8TBX8)	cell-free assay	42%
Insulin receptor (INSR, Homo sapiens, UniProt P06213)	cell-free assay	100%
Fibroblast growth factor receptor 3 (FGFR3, Homo sapiens, UniProt P22607)	cell-free assay	71%
Platelet-derived growth factor receptor alpha (PDGFRA, Homo sapiens, UniProt P16234)	cell-free assay	58%
Calcium/calmodulin-dependent protein kinase type 1G (CAMK1G, Homo sapiens, UniProt Q96NX5)	cell-free assay	95%
Transient receptor potential cation channel subfamily M member 6 (TRPM6, Homo sapiens, UniProt Q9BX84)	cell-free assay	86%

Other studies, line by line
Compound	cell line	assay	conditions	quantity	value
C[C@@H](Oc1cc(-c2cnn(C3CCNCC3)c2)cnc1N)c1c(Cl)ccc(F)c1Cl	M091-TA	cell growth, alamarBlue	48 h	GI50	0.02 µM

Excerpt of the above (series 3):
Structure (SMILES)	IC50 [µM]
OCCc1ccc(O)cc1	≥ 100
COc1cc2oc(=O)ccc2c(OC)c1C[C@@H](O)C(C)(C)O	≥ 100
Fc1ccc(-c2nnc3ccc(N4CCc5ccccc5CC4)nn23)nc1	≥ 100
COc1cc(CN2CC=C(C)CC2)ccc1OCC(O)CN1CCSCC1 (stereo not shown)	≥ 100
